# Experimental data from different studies.
# Protocols differ between the studies behind these lines. ± marks the error that the study gave.
# Sample: plasma
Structure (SMILES),host,route,dose,time,notes,added,AUC(0-inf) [ng·h/mL]
CC(C)[C@H](NC(=O)CNC(=O)[C@H](CCC(N)=O)NC(=O)[C@H](C)N)C(=O)O,"healthy volunteers, LPS endotoxaemia",intravenous,15 mg/kg/h,2 h infusion,geometric mean,LPS 2 ng/kg,3350
Cc1ccccc1-c1cc(N2CCNCC2)ncc1N(C)C(=O)C(C)(C)c1cc(C(F)(F)F)cc(C(F)(F)F)c1,healthy volunteers,oral,dose not given,,,,4940 to 6700
CC(C)(Sc1cc[n+]([O-])cc1-c1ccc(C#N)c2ccccc12)C(=O)OC1OC(C(=O)O)C(O)C(O)C1O (centres unmarked),,oral,15 mg,,"moderate renal impairment, fasted",,601
NC(=O)c1cnc2[nH]ccc2c1NC1C2CC3CC1CC(OS(=O)(=O)O)(C3)C2 (centres unmarked),"Japanese adults, mild hepatic impairment",oral,150 mg single dose,,"fasting, Child-Pugh A",,4390
CN1CCN(c2cc(-c3ccccc3CO)c(N(C)C(=O)C(C)(C)c3cc(C(F)(F)F)cc(C(F)(F)F)c3)cn2)CC1,healthy volunteers,oral,dose not given,,,,4050 to 5840
NC(=O)/C=C/c1cccc(S(=O)(=O)Nc2ccccc2)c1,patients with mild liver dysfunction,intravenous,400 mg/m^2 belinostat,,"single 30 min infusion, cycle 1 day -7, mean",,14000
Cc1ccccc1-c1cc(N2CC[N+](C)([O-])CC2)ncc1N(C)C(=O)C(C)(C)c1cc(C(F)(F)F)cc(C(F)(F)F)c1,healthy volunteers,oral,dose not given,,,,1710 to 2250
COc1cc(C)c(Cc2ccc(O)cc2)cc1[C@@H]1S[C@H](CO)[C@@H](O)[C@H](O)[C@H]1O,Japanese T2DM patients,,2.5 mg luseogliflozin,day 1,once daily,,140 ± 31.3
CONC(=O)/C=C/c1cccc(S(=O)(=O)Nc2ccccc2)c1,patients with severe liver dysfunction,intravenous,400 mg/m^2 belinostat,,"single 30 min infusion, cycle 1 day -7, mean",,15500
CC(C)(Sc1ccncc1-c1ccc(C#N)c2ccccc12)C(=O)OC1OC(C(=O)O)C(O)C(O)C1O (centres unmarked),,oral,15 mg,,"moderate renal impairment, fasted",,727
O=C(O)/C=C/c1cccc(S(=O)(=O)Nc2ccccc2)c1,patients with severe liver dysfunction,intravenous,400 mg/m^2 belinostat,,"single 30 min infusion, cycle 1 day -7, mean",,12300
Cn1cc(C(N)=O)c(NC2C3CC4CC2CC(O)(C4)C3)c2ccnc1-2 (centres unmarked),"Japanese adults, normal hepatic function",oral,150 mg single dose,,fasting,,357
O=C(O)c1cccc(S(=O)(=O)Nc2ccccc2)c1,patients with mild liver dysfunction,intravenous,400 mg/m^2 belinostat,,"single 30 min infusion, cycle 1 day -7, mean",,15300
Cn1cc(C(N)=O)c(NC2C3CC4CC2CC(OS(=O)(=O)O)(C4)C3)c2ccnc1-2 (centres unmarked),"Japanese adults, mild hepatic impairment",oral,150 mg single dose,,"fasting, Child-Pugh A",,888
